Earlier results, collected from citations in different studies.
Compare with care: the assays were run in different laboratories. “And” joins repeats or separate records; there may be more than shown. ± marks the error that the study gave. ≈ marks a conversion by molar mass, not a printed value.
UniProt Q9UIK4, sequence (whole entry, looked up): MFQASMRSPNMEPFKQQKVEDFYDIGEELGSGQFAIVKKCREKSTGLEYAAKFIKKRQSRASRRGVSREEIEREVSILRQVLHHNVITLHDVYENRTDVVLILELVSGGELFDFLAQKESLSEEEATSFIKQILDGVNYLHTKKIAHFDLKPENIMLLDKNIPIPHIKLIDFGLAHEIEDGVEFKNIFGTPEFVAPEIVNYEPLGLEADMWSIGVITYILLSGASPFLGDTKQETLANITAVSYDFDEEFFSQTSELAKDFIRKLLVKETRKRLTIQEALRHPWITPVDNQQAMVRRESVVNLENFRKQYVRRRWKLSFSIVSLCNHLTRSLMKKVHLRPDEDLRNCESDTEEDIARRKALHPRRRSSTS

SMILES	tested on	test	test system	setting	scale	measurement	value
N=C(N)c1ncn([C@@H]2O[C@H](CO)[C@@H](O)[C@H]2O)n1			monkey	10 mg/kg		oral bioavailability	13.6%
COc1ccc2[nH]cc(CCNC(C)=O)c2c1			water			solubility	< 1000 µg/mL
Cc1[nH]cc(Br)c(=O)c1-c1ccc(Oc2ccccc2)cc1	Plasmodium falciparum	whole cell extended time	3D7	72 h		IC50	680 nM
CNC(C)C1CCC(N)C(OC2C(N)CC(N)C(OC3OCC(C)(O)C(NC)C3O)C2O)O1 (stereo not drawn)	Klebsiella pneumoniae		clinical isolate RKI-No_577/15			MIC	> 8 µg/mL
C[Si]1(C)O[Si](C)(C)O[Si](C)(C)O[Si](C)(C)O[Si](C)(C)O1		vapour pressure over solubility		25 °C		log KAW	2.25
CC1(C)C[C@@H]1C(=O)N/C(=C\CCCCSC[C@H](N)C(=O)O)C(=O)O			human			Vd	0.19 L/kg
CC(C)(C)c1cc(C(C)(C)C)c(NC(=O)c2c[nH]c3ccccc3c2=O)cc1O			human liver microsomes			CLint	78.8 µL/min/mg protein
CC(=O)c1c(C)c2cnc(Nc3ccc(N4CCNCC4)cn3)nc2n(C2CCCC2)c1=O			rat female	200 mg/kg, day 3 of cycle 21		AUC	7050 ng·h/mL
CCc1cc(/C(C)=N/OCc2ccc(C3CCCCC3)c(C(F)(F)F)c2)ccc1CN1CC(C(=O)O)C1		population PK	human, CYP2C9*3/*3			clearance	0.811 L/h
COc1ccccc1OCC(O)CN1CCN(CC(=O)Nc2c(C)cccc2C)CC1 (stereo not drawn)			human			free Cmax	2480 nM
COCCc1ccc(OCC(O)CNC(C)C)cc1 (stereo not drawn)			human	100 mg		AUC(0-48 h), geometric mean	474 ng·h/mL
C[Si](C)(C)O[Si](C)(C)C				25 °C		log KAW	1.98
Nc1nc2c(ncn2COCCO)c(=O)[nH]1			human			oral bioavailability	20%
Cn1c(Cn2ccc(C(F)(F)F)c(Oc3cc(Cl)cc(C#N)c3)c2=O)n[nH]c1=O			human	up to 48 weeks, trial	reference: subjects	upper abdominal pain incidence	5%
CCCN[C@H]1CCc2nc(N)sc2C1			water			solubility	< 1000 µg/mL
Cc1ccccc1CN1C(=O)C2=C(CCN(Cc3ccccc3)C2)N2CCN=C12			human	oral, 625 mg, fasted, single dose		Tmax	0.75 h
O=C(O)C[C@H](O)C[C@H](O)/C=C/c1c(C2CC2)nc2ccccc2c1-c1ccc(F)cc1			Sprague Dawley rats	dose not given, with: silymarin	reference: without silymarin	AUC increase	1.84 fold
Cc1cc(-c2nccc3c2ccn3CC(=O)Nc2ccc(-c3cnccn3)cn2)ccn1			rat	6 mg/kg/day, 1 month, repeat dosing		AUC(0-24 h), total	11.2 µM·h
C[C@H]1COCCN1c1nc(-c2cnc(N)cc2C(F)F)nc(N2CCOCC2)n1	LoVo					GI50	315 nM
Nc1ccn([C@@H]2O[C@H](CO)[C@@H](O)C2(F)F)c(=O)n1			metastatic pancreatic cancer patients	dose not given		grade 1-4 neutropenia incidence	58%
Nc1nc(O)c2ncn(COC(CO)CO)c2n1			human	500 mg every 3 h, 6 doses total		oral bioavailability	8.84%
Cc1ccc(-c2cc(C(F)(F)F)nn2-c2ccc(S(N)(=O)=O)cc2)cc1			rat, plasma	oral, 100 mg/kg single dose		Tmax	3.2 h
COc1cc2c(Oc3ccc4[nH]c(C)cc4c3F)ccnc2cc1OCC1(N)CC1			adult human	16 mg single dose		AUC(0-120 h)	894 ± 305 ng·h/mL
Cc1cccc(Nc2ccccc2C(=O)O)c1C			plasma	concentration not given, total, steady state		Cmax	82900 nM
c1ccc2ccccc2c1			zebrafish embryos, whole embryo	320.4 ng/well, 48 hpf, single exposure		amount in tissue	0.323 ng/well and 0.286 ng/well and 0.331 ng/well
CNCc1cc(-c2ccccc2F)n(S(=O)(=O)c2cccnc2)c1			human, plasma	30 mg multiple dose, observed clinical data		Ctrough	3.65 ng/mL
CCCN(CCc1cccs1)[C@H]1CCc2c(O)cccc2C1			water			solubility	< 1000 µg/mL

SMILES	tested on	test	test system	setting	scale	measurement	value
Nc1cc(C(F)(F)F)c(-c2nc(N3CCOCC3)nc(N3CCOCC3)n2)cn1	DAPK2 (Homo sapiens, UniProt Q9UIK4)	enzyme activity		10 µM	reference: untreated	remaining activity	94%
Cc1nc(NC(=O)N2CCC[C@H]2C(N)=O)sc1-c1ccnc(C(C)(C)C(F)(F)F)c1			human, feces	oral, 400 mg, time not given, radiolabelled, fasted	reference: dose	unchanged drug recovered	36%
Cc1[nH]c(C)c(-c2ccc(-c3ccc(Cl)cc3)nc2)c(=O)c1Cl	Plasmodium falciparum	whole cell extended time	3D7	72 h		IC50	110 nM
COc1ccc(Cl)cc1C(=O)NCCc1ccc(S(=O)(=O)NC(=O)NC2CCCCC2)cc1			human serum albumin	concentration not given		HSA binding, literature value	99%
Nc1ncn([C@H]2C[C@H](O)[C@@H](CO)O2)c(=O)n1			human whole blood	one hour, cold bath conditions		whole blood stability	stable
CC(=O)Nc1ccc(O)cc1			plasma	literature data		free Cmax	99900 nM
CCN1CCN(Cc2ccc(Nc3ncc(F)c(-c4cc(F)c5nc(C)n(C(C)C)c5c4)n3)nc2)CC1			human	dose not given, potency-adjusted incl active metabolites, with: rifampin co-administration		unbound AUC decrease	77%
CCCCCOC(=O)Nc1nc(=O)n([C@@H]2O[C@H](C)[C@@H](O)[C@H]2O)cc1F			human	concentration not given, clinical		diarrhoea incidence	55%
CN(C)CCCN1c2ccccc2Sc2ccc(Cl)cc21			liver microsomes 0.5 mg/mL	1 µM		CLint, scaled	55.9 mL/min/kg
Nc1nc(N)c2nc(-c3ccccc3)c(N)nc2n1			supercritical CO2			crossover pressure	180 to 200 bar
CC1(C)S[C@@H]2[C@H](NC(=O)[C@H](N)c3ccccc3)C(=O)N2[C@H]1C(=O)O	Klebsiella pneumoniae		clinical isolate RKI-No_577/15			MIC	> 16 µg/mL
CCCCC/C=C\C/C=C\CCCCCCCCC(CCCCCCCC/C=C\C/C=C\CCCCC)OC(=O)CCCN(C)C			human patients, urine	96 h, DMBA	reference: dose	urinary recovery of metabolite	5.5%
CN(C)C(=O)c1cc2cnc(Nc3ccc(N4CCNCC4)cn3)nc2n1C1CCCC1			dog			terminal half-life	18 h
N#C[C@@]1(c2ccc3c(N)ncnn23)O[C@H](CO)[C@@H](O)[C@H]1O			dog	intravenous, 2 mg/kg, unadjusted NCATS data		half-life	4.99 h
CNC(=O)c1c(C)oc2cc(Oc3ncnc4cc(OC)c(OC)cc34)ccc12			healthy human subjects	dose not given, with: high-fat meal		exposure change	no effect
Nc1cccc2c1CN(C1CCC(=O)NC1=O)C2=O (stereo not drawn)			water			solubility	< 1000 µg/mL
COCC(=O)O[C@]1(CCN(C)CCCc2nc3ccccc3[nH]2)CCc2cc(F)ccc2[C@@H]1C(C)C			human			free Cmax	12 nM
C[C@H]1O[C@@H](O[C@H]2[C@@H](O)C[C@H](O[C@H]3[C@@H](O)C[C@H](O[C@H]4CC[C@@]5(C)[C@H](CC[C@@H]6[C@@H]5C[C@@H](O)[C@]5(C)[C@@H](C7=CC(=O)OC7)CC[C@]65O)C4)O[C@@H]3C)O[C@@H]2C)C[C@H](O)[C@@H]1O			FaSSIF	literature value		solubility	15.6 µg/mL (≈ 20 µM)
O=C1Cc2cc(CCN3CCN(c4nsc5ccccc45)CC3)c(Cl)cc2N1			human			free Cmax	0.38 nM
NCCNC(=O)c1ccc(Cl)cn1			plasma			free Cmax	2260 nM
CN(Cc1cnc2nc(N)nc(N)c2n1)c1ccc(C(=O)N[C@@H](CCC(=O)O)C(=O)O)cc1			water			solubility	< 1000 µg/mL
C#Cc1cccc(Nc2ncnc3cc(OCCOC)c(OCCOC)cc23)c1			human	concentration not given, with: with food		increase in bioavailability	~100%
O=C1Nc2ccc(Cl)cc2[C@@](C#CC2CC2)(C(F)(F)F)O1			human liver microsomes			CLint	0.694 µL/min/mg protein
COc1cccc2c1C(=O)c1c(O)c3c(c(O)c1C2=O)C[C@@](O)(C(=O)CO)C[C@@H]3O[C@H]1C[C@H](N)[C@H](O)[C@H](C)O1			plasma	concentration not given, total, steady state		Cmax	1630 nM
CN1CCc2nc(C(=O)N[C@@H]3C[C@@H](C(=O)N(C)C)CC[C@@H]3NC(=O)C(=O)Nc3ccc(Cl)cn3)sc2C1			human, moderate renal impairment	concentration not given, eGFR 10-50 mL/min	reference: normal renal function	exposure increase	74%
Cc1ccc(NC(=O)c2ccc(CN3CCN(C)CC3)cc2)cc1Nc1nccc(-c2cncc(-c3oncc3C)c2)n1			mouse	50 mg/kg/day, steady state		half-life	3.1 h
Cc1c(C(=O)O)ccc2c3n(nc12)[C@@H]1[C@H](C3)N(CC2CC2)[C@@]2(C(=O)Nc3cc(Cl)ccc32)[C@H]1c1cccc(Cl)c1F			human glioblastoma patients, tumor tissue	dose not given		tumor concentration	80 to 900 nM

A few entries again:
SMILES	tested on	test	test system	setting	scale	measurement	value
Cc1cccc(Nc2ccccc2C(=O)O)c1C			plasma	concentration not given, total, steady state		Cmax	82900 nM
CCN1CCN(Cc2ccc(Nc3ncc(F)c(-c4cc(F)c5nc(C)n(C(C)C)c5c4)n3)nc2)CC1			human	dose not given, potency-adjusted incl active metabolites, with: rifampin co-administration		unbound AUC decrease	77%
CC(=O)Nc1ccc(O)cc1			plasma	literature data		free Cmax	99900 nM
c1ccc2ccccc2c1			zebrafish embryos, whole embryo	320.4 ng/well, 48 hpf, single exposure		amount in tissue	0.323 ng/well and 0.286 ng/well and 0.331 ng/well
CN(C)CCCN1c2ccccc2Sc2ccc(Cl)cc21			liver microsomes 0.5 mg/mL	1 µM		CLint, scaled	55.9 mL/min/kg
Nc1nc(O)c2ncn(COC(CO)CO)c2n1			human	500 mg every 3 h, 6 doses total		oral bioavailability	8.84%
